Measured values of several laboratories.
A part holds a random share of what one study measured. Positions count from the first letter of the parent shown.

Set 1
Target: CCNB3, cyclin fold, Cln2 fusion (human)
Method: yeast growth competition, sequencing
Sample: yeast
Notes: weak parent motif
Baseline: not given
Reading: higher = stronger binding
Quantity: normalised enrichment score
Starting sequence: CDKN1A docking peptide (human); SKACRRLFGPVDS; partner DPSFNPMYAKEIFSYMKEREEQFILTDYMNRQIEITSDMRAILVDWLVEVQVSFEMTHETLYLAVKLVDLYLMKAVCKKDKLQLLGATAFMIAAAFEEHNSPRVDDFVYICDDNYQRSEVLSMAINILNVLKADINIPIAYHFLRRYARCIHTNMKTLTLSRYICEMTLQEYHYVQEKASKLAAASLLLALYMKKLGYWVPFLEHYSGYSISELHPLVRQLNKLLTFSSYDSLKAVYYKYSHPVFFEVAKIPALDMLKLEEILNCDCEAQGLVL
SKACRRLFPPVDS [G9P]: 0.503
SKQCRRLFGPVDS [A3Q]: 0.281
SKACSRLFGPVDS [R5S]: -0.265
SKACRRAFGPVDS [L7A]: -0.0797
SKECRRLFGPVDS [A3E]: 0.189
SKACRRLAGPVDS [F8A]: -0.00304
SKACARAFGPVDS [R5A L7A]: 0.0785
SKACRRLFGPFDS [V11F]: 0.436
SKACQRLFGPVDS [R5Q]: 0.153
SKAPRRLFGPVDS [C4P]: 0.361
AKACRRLFGPVDS [S1A]: 0.676
SKACRFLFGPVDS [R6F]: 0.433
SKAKRRLFGPVDS [C4K]: 0.614
SKACRRLFGPLDS [V11L]: 0.0862
SKACRRLFGPWDS [V11W]: 0.809
SKACRRLFTPVDS [G9T]: 0.563
SKACRRLWGPVDS [F8W]: 0.299
SKACRRLFGPVFS [D12F]: 0.636
SKACRRLPGPVDS [F8P]: 0.0164
SKACRRDFGPVDS [L7D]: 0.16
SKACRRLRGPVDS [F8R]: 0.289
SKACRWLFGPVDS [R6W]: 0.508
SKACRRLFGFVDS [P10F]: 0.179
SKACRRLFGPHDS [V11H]: 0.381
SKACRRLFGPVWS [D12W]: 0.305

Set 2
Target: ABI1, truncated, D143A, DHFR fusion (Arabidopsis thaliana)
Method: DHFR PCA, deep sequencing
Sample: yeast
Notes: methotrexate growth selection, single substitutions
With: (+)-ABA 4.8 µM
Baseline: wild-type fitted maximum
Reading: higher = stronger binding
Quantity: relative binding score
Starting sequence: PYL1, truncated, DHFR fusion (Arabidopsis thaliana); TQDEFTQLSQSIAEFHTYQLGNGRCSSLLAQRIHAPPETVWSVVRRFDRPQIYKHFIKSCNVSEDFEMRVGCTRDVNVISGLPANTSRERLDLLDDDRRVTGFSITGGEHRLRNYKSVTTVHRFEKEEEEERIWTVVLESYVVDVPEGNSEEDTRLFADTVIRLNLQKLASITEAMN; partner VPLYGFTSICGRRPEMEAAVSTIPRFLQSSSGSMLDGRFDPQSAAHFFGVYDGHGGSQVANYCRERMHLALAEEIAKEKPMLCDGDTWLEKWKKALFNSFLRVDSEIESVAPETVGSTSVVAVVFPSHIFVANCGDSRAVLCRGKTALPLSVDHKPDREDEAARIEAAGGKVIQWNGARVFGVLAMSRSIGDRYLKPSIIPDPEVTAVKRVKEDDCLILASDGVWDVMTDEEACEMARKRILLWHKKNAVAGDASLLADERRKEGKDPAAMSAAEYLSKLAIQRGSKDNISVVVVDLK
Y53C: -3.07%
C25M: 33.2%
Q10R: 69.3%
L91E: 2.08%
S27T: 5.64%
F103L: -3.37%
F124K: 12.9%
F157R: 3.64%
D48K: -3.15%
A170T: 29.5%
A158T: 86%
S11R: 40.9%
R113W: 17%
V145E: -8.83%
D3P: 75%
A30S: 79.2%

Set 3
Target: RING finger protein unkempt homolog, zinc fingers 1-6, GST-SBP tag (UNK, Homo sapiens, UniProt Q9C0B0, residues 30-357)
Sequence of UniProt Q9C0B0 (30-357, looked up): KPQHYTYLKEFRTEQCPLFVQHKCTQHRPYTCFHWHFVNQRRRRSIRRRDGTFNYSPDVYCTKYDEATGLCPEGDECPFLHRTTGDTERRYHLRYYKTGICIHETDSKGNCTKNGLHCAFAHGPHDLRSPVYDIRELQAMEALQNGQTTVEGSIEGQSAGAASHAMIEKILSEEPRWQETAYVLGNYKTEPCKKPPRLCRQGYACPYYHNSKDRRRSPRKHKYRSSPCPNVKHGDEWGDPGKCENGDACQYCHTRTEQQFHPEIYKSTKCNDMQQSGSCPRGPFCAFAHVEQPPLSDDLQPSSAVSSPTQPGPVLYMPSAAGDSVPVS
Method: RNA Bind-n-Seq
Molecule type: RNA
Sample: in vitro
Concentration: not given
Notes: RNA with constant flanks, human and mouse sites, ends assumed
Baseline: input RNA pool
Reading: higher = stronger binding
Quantity: bound/input enrichment
Shared flanks, not repeated: GGGAGUUCUACAGUCCGACGAUC … CAACAGAGGAUUGAGCAUCA
GCCCUAGGGAUAGACAAUGUCCUCAGGUUCCACUUCAUGUCUCCCCCGCCAGCACAGUCGAUGGUUCAAGCCUUGGAGCUGCUCUAUGCUCUCGGAGGUCUGGACAAAGACUGUCGCCUA: 0.136 ratio
CAGCAGUUGUAUUCUUUAUUAGCUUGGUAGAUCAUUUUCUCUCGCUCUUUUUUUUAAUACUAGCAACUUUCAUCCUUUGAAACGUGUGCUGAAAAAGAAGAAUCAGCAAAUACUACUGAA: 0.86 ratio
CAGCUGUGGGAAACGAGCUUUGCUUUUAUAUAUAUAUAUAUAUAUAUAUAUAUAUAUUUAAAUAGGAUACUUUUAUAUGAUGGGUGCUUUGAGUGUGAAUGCAGCAGGCUCUAUCUCAGA: 21.4 ratio
CAGACCAGGGUGUGCUGGGAGUCCAGGACUCUCGGGGUUUAUGUCAAUCAGUGCAAUUGUCUGUAUUUCUCAGUGGGGCCAGGUUGGGAAGCAACAGGCCAGGUGGUGAGUUCUCAGAGG: 0.106 ratio
ACUCAGAAGCCAGUUCAUCAGCUCUUUGAUUACAUUUGUGGUGUAAGCACAGGUGCCAUAUUAGCUUUCAUGUUGGGGUUGUUUCAUAUGCCCUUGGAUGAAUGUGAGGAACUUUAUCGA: 0.161 ratio
CUUGGGGUCAGAGAAAGGGACAGAUACAGAAGGACCUUGCUUGCAGGAAGCCAUGCAGUUAGUUUCUGCAGUUAGUCGUGUGAGGCUAGGUGGUUGGGCAGGCCUCGGGCUGUAGGUGUU: 0.69 ratio
CCUCUUGCCAGGAGUCCAUGUUUGUUCUACCCGAACUUUGGACUGUUAACUAGAGAAGUGAUAGACUGAUGAACCUUCUAGUGUUGUCUGCUCCAUACGGGAAAUGAGCUUCAAGGCCAA: 0.192 ratio
UUGAACUAUCCUAAUGAGACAAAUUUAUACCUUCCCCCAGCCCCCAAGGUUAAAACUAAUACCCUAAUUCAUUAAACUCUUGAAACAGGUGUCACAAAGGAGGAAGACAUCACCCCUCAC: 0.51 ratio
GAAAGAACCGUUCCCAGGAUAUUUGUCAAUGGACGAUUUAUUGGAGGCGCAGCGGACACUCACAGGCUUCACAAAGAAGGGAAAUUGCUGCCUCUGGUUCAUCAGUGUUAUUUAAAAAAA: 0.164 ratio
GGGUUAUAUCAAUAUAAGAACAUAUGCCAACAGGUAAACAUUAAAUCUUUAGAAGAUGUUGUUAGGGCAUAUUUGAAAUUAGCAGAGGAAAAAACAGAAGCUGCUAAAGAAGAGUCCCAA: 1.14 ratio
UAUUAUGGAAUACCAAAGUGAAGGGAUUUUGUCAUUCAGCAGACUGUUUCAUAUCCAGAAUAGUUCUUCCCUUACCCUUUCAGUCAUAAUUAAAAACCUAAGCUUUCUGGUAAAGUAGGA: 0.439 ratio

Set 4
Target: Centromere-binding protein 1, full length, His-tagged (CBF1, Saccharomyces cerevisiae, UniProt P17106, residues 1-351)
Sequence of UniProt P17106 (whole entry, looked up): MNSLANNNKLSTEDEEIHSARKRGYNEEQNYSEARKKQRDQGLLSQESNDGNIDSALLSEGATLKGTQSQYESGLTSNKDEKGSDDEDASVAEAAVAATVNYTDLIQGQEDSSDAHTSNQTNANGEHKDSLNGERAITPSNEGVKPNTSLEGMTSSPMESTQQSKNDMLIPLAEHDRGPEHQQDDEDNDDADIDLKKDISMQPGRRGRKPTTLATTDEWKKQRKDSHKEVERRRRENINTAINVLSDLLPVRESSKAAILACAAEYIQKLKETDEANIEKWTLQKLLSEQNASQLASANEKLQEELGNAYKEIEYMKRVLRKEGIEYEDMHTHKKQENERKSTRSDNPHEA
Method: competition protein-binding microarray
Molecule type: double-stranded DNA, one strand shown
Sample: in vitro
Concentration: 2 µM
Notes: whole 60-bp probe, lowest competitor level
With: Pho4 competitor, 0.05 µM
Reading: higher = stronger binding
Quantity: fluorescence intensity
Shared flanks, not repeated: … GTCTTGATTCGCTTGACGCTGCTG
TTGAGGATCATCCAACACGTGCGATAACGTATCGAC: 1150 a.u.
AACTTTGAGCTTCCTCACGTGGAACATAAGATAGAT: 809 a.u.
TTGCTCAACGTTAAAGACGTGCTTTTTTGACTGACT: 66.6 a.u.
TATCCTAAATGCCATCACGATGATAAATCCTCCGCC: 118 a.u.
CTTTTGTCCAAGTTCCACGTGTCCAAAAATTGGAAA: 1870 a.u.
CGTACGGCAATAATCCTCGTGCAAAAATCTCTAAGA: 169 a.u.
CGTCCTAGTGATTGTCACCGGACTTCCATGAGGAAG: 79.6 a.u.
CATACCCAACCTTATCACGTGTTTTAAGATATTTGT: 5450 a.u.
CATACCCAACCTTTTCACGTGCCGTAAGATATTTGT: 1300 a.u.
TTTCTCACAAGACTGCTCGTGGTGAGGCCGCTTTGG: 79.2 a.u.
GGACGAGAAATACACAGATTCAGTAAGATTTGTGAG: 76.8 a.u.
AAGCTAAGCTCGAAGGACGTGCTAAGACATACGAAT: 70.4 a.u.
GACAATTTGATTTATGACCTGATTCACAGAATTCGC: 74.4 a.u.
TCAGGATCTGGCTGGCACATGATGCGGAAGCAGCGG: 299 a.u.
AAAGTAAAATCCCAACACGTGATGGTGTTCGTCTGA: 4110 a.u.
AAATCAATGGGCTCAGCTCATCTTGAAAAGCTCACT: 58.5 a.u.
CGTCCTAGTGATTGTAAAGTGGGTGCCATGAGGAAG: 86 a.u.
TTGTGTGTATGGTTCCACGTTTCTGCCTTGTGCTTT: 86.8 a.u.
CAAGATAGGGAGAGCCACGTGATAGACTGGGGAGAG: 2410 a.u.
TAGAGGCAAAGTAGTCACCTGACTGCGCAAGCCCAT: 2230 a.u.
CTTTCCCGATCTTGTCACAACACTTTAGCACATTTG: 94.2 a.u.
CAACTTGATGGTCTACACGTTGTTTCAAGTGCATAC: 91.7 a.u.
TTGCTGGTTACCCTGCATGTGATATTTGATTACATA: 432 a.u.
ATGAAGTGAAATCGGCACGTGGAGGTCAGAAGAGTC: 1050 a.u.
CTAACGAAGGTTTGCTGGGTGGGTGACAAGCCAAGT: 75 a.u.

Set 5
Target: Interferon regulatory factor 7, full length, phosphomimetic (IRF7, Homo sapiens, UniProt Q92985, residues 1-503, S101K/S471D/S472D/S475D/S476D/S477D/S483D/S484D/S487D)
Sequence of UniProt Q92985 (whole entry, unmodified, looked up): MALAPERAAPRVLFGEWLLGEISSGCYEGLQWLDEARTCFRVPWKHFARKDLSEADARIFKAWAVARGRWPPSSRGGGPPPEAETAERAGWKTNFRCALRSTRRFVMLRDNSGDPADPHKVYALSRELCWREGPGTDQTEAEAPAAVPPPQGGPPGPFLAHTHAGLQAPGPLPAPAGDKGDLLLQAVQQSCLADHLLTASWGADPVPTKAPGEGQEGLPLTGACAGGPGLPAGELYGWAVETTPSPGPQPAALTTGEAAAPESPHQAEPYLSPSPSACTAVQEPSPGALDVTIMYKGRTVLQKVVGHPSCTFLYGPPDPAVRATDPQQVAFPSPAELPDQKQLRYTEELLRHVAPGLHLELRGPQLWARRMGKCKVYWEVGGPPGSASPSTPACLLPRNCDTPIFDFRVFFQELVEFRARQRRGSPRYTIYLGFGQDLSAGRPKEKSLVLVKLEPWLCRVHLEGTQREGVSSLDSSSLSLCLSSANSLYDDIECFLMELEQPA
Method: protein-binding microarray
Molecule type: double-stranded DNA, one strand shown
Sample: in vitro
Concentration: 250 nM
Notes: 60-bp whole probe
With: salmon DNA 0.4 mg/ml
Baseline: random background probes
Reading: higher = stronger binding
Quantity: log fluorescence
Shared flanks, not repeated: GCCTAGCAC … GTCTTGATTCGCTTGACGCTGCTG
TTAGGTTTCGACACTAGGTTAGTGCTA: 3.72 z-score
TATAAATTATCTTTAATCCTGTGCTAG: 0.113 z-score
TCACCTTGAACTTTGGCACTGTGCTAG: 0.0933 z-score
TGAGGTTTCCTTTTCCTTTAGTGCTAG: 6.74 z-score
TCAAGCATTACTTTAGGACTGTGCTAG: -0.43 z-score
GACGGTTTCCTTACCCTGACGTGCTAG: 1.49 z-score
TTAGGTTTCCTTTCCCTTGAGTGCTAG: 4.47 z-score
GGTTGTTTCTAATATTCTGCTGTGCTA: 0.464 z-score
GGCGGTTTCGGGTTTCGGGACGTGCTA: 11.9 z-score
ATATCTTATCCTATCAGTTTGTGCTAG: 1.03 z-score
GACGAACTGGGGTTTCGAGTCGTGCTA: 5.68 z-score
TTAGGGTTCGGTCTCGGTTAGTGCTAG: 2.02 z-score
TTAGGACTTGGTATCGGTTAGTGCTAG: 1.72 z-score
AACCTTATTAAGATTGTGCAAGTGCTA: 0.0251 z-score
TACGATCTCAGACTGGAGACGTGCTAG: -0.352 z-score
TTAGGTATACTTTTCCTTTAGTGCTAG: 0.633 z-score
GACGGTTTCGGTCTCGGGATGTGCTAG: 7.92 z-score
GACGAACTGTGGTATCGAGACGTGCTA: -0.155 z-score
CTAGGTATCGACACTGGGTTAGTGCTA: 0.324 z-score
TTAGGTTTCGGTTTCGGTTAGTGCTAG: 14.6 z-score
TTTGGTTTCTGGTTTATTGAGTGCTAG: 5.99 z-score
GGCGGTATCGGGTATCGGGACGTGCTA: 0.564 z-score
ACCACTCCAGTTCTGGGAAAGTGCTAG: 0.111 z-score
GACGAACTGGGGTTTCGAAACGTGCTA: 3.59 z-score
GACGATTTCGGTCTCGGGACGTGCTAG: 1.02 z-score

Set 6
Substance: PhoQ, residues 284 288 289 292 302 303 SVTLVV
Method: Sort-seq
Refers to: YFP reporter
Sample: E. coli
Notes: PhoQ-PhoP variant library
With: 10 µM Mg2+
Baseline: high Mg2+ state
Reading: higher = stronger signaling
Quantity: fold induction
PhoP, residues 12 14 15 18 19 SHWTV (Escherichia coli, UniProt P23836): 1.28
PhoP, residues 12 14 15 18 19 QYCSL (Escherichia coli, UniProt P23836): 12.3
PhoP, residues 12 14 15 18 19 STHWV (Escherichia coli, UniProt P23836): 0.619

A few entries again (set 4):
TTGTGTGTATGGTTCCACGTTTCTGCCTTGTGCTTT: 86.8 a.u.
TTGCTGGTTACCCTGCATGTGATATTTGATTACATA: 432 a.u.
ATGAAGTGAAATCGGCACGTGGAGGTCAGAAGAGTC: 1050 a.u.
TTGCTCAACGTTAAAGACGTGCTTTTTTGACTGACT: 66.6 a.u.
TTGAGGATCATCCAACACGTGCGATAACGTATCGAC: 1150 a.u.
CAAGATAGGGAGAGCCACGTGATAGACTGGGGAGAG: 2410 a.u.
TTTCTCACAAGACTGCTCGTGGTGAGGCCGCTTTGG: 79.2 a.u.
